Measurements pooled from the literature.
Parts stem from different laboratories: compare values within a part only. Positions count from the first letter of the parent shown.

Series 1
Target: Centromere-binding protein 1, full length, N-terminal tag (CBF1, Saccharomyces cerevisiae, UniProt P17106, residues 1-351)
Chain of UniProt P17106 (whole entry, looked up): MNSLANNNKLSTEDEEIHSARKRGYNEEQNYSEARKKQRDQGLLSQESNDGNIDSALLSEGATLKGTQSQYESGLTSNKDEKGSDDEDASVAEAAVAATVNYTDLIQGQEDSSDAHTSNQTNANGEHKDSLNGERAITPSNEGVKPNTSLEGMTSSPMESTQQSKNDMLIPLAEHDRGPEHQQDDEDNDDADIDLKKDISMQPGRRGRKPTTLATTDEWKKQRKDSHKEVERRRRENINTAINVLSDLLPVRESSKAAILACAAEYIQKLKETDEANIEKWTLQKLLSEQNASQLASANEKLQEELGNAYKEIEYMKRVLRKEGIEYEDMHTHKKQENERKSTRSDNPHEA
Technique: protein-binding microarray
Form: double-stranded DNA, one strand shown
Sample: in vitro
Concentration: 0.8 µM
Setting: whole 60-bp probe, no competitor
Reading: higher = stronger binding
Shared flanks, not repeated: … GTCTTGATTCGCTTGACGCTGCTG
`GAATTAACCTTCCCAAACGTGTCCCACACCAAATAG` gave a fluorescence intensity of 559 a.u.
`GAATATTTTTAAATACGCATGACCATCCGCGAATAG` has a fluorescence intensity of 932 a.u.
`TGTACGAAGCTATAACATCACACTATAGTAGTTAGG` has a fluorescence intensity of 558 a.u.
With `GAACAGTGCAGTCGCAAGCACGTGCATGCGATTTAG` the fluorescence intensity was 15400 a.u.
With `CCTAACTACTATAATCACGAAACATAGCTTCGTACA` the fluorescence intensity was 542 a.u.
The fluorescence intensity of `GAATAAAAAAATAAAAACGTGATCCGTACTTATTAG` is reported as 2680 a.u.
`GAATGCAATGTTCTGCACGTTATTTACTTCGATTAG` gave a fluorescence intensity of 677 a.u.
The fluorescence intensity of `CTAGATCAATTCAACAACACCACCAGCAGCTCTTTC` is reported as 558 a.u.
For `TGTACGAAGCTATAGTGGGTGATTATAGTAGTTAGG`, the fluorescence intensity was 531 a.u.
For `CTACGCTGAGCGCGCCACGTTAAAAGCTCGAATTTC`, the fluorescence intensity was 503 a.u.
`GAAGCCCTTATCAATCACGCTAAAAATTGCCCCTAG` gave a fluorescence intensity of 562 a.u.
`CTATAGAATACTACACGTGCAATCGGTAGCATGTTC` has a fluorescence intensity of 3650 a.u.
With `CTAAATAAACCACGTCACGTCAAAATATCAGTTTTC` the fluorescence intensity was 643 a.u.
For `CTAATTGGGCGTTAGCAGGTGGTGCCAGTGGATTTC`, the fluorescence intensity was 529 a.u.
`GAATGAGATATACATGTGATTAATATCAGAAGGTAG` has a fluorescence intensity of 2760 a.u.
The fluorescence intensity of `GAAGAACAATTTAGGCACGGGGAAATTCGATCGTAG` is reported as 629 a.u.
`GAAAACAGATACAGACATCACACGCCATAGAGGTAG` has a fluorescence intensity of 572 a.u.
For `GAATTGAAAAATACCATCGTGATTGCCTTCAAATAG`, the fluorescence intensity was 680 a.u.
`GAAACACGTGAAAAGCACGTGAACAACAAAGCATAG` gave a fluorescence intensity of 11900 a.u.
With `CTACCCACCCATTCGCACGGGTCTTCTGTGCGATTC` the fluorescence intensity was 558 a.u.
`CTATCAGGATTTATTTTCATGATGTATGGGTGTTTC` gave a fluorescence intensity of 538 a.u.
With `GAACTTGTTCCATTTAACGTGGATTTGACTTGCTAG` the fluorescence intensity was 500 a.u.
With `CCTAACTACTATAGTGATGCGCTATAGCTTCGTACA` the fluorescence intensity was 522 a.u.

Series 2
Target: CCNF, cyclin fold, Cln2 fusion (human)
Technique: yeast growth competition, sequencing
Sample: yeast
Setting: strong parent motif
Baseline: not given
Reading: higher = stronger binding
Starting sequence: SGO1 docking peptide (human); PLAKRALKYTDEK
For `PLAKRALKATDEK [Y9A]`, “normalised enrichment score” read 0.434.
For `PLAKRALKYTAEK [D11A]`, “normalised enrichment score” read 2.37.
`PLAKRALKYADEK [T10A]`: “normalised enrichment score” 3.89.
Under “normalised enrichment score”, `PLAARALKYTDEK [K4A]` is recorded as 1.42.
For `PAAKRALKYTDEK [L2A]`, “normalised enrichment score” read 5.24.
Under “normalised enrichment score”, `ALAKRALKYTDEK [P1A]` is recorded as 2.36.

Series 3
Target: ABI1, truncated, D143A, DHFR fusion (Arabidopsis thaliana)
Technique: DHFR PCA, deep sequencing
Sample: yeast
Setting: methotrexate growth selection, single substitutions
Added: (+)-ABA 0.0091 µM
Baseline: wild-type fitted maximum
Reading: higher = stronger binding
Starting sequence: PYL1, truncated, DHFR fusion (Arabidopsis thaliana); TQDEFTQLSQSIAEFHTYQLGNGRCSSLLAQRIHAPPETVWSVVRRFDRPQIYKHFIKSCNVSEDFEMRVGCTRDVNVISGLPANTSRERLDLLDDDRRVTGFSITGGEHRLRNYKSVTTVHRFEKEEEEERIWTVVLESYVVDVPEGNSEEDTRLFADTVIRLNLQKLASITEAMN
`F5W` — result for “relative binding score”: 36.5%.
For `D65W`, “relative binding score” read 1.24%.
`S63E`: “relative binding score” 23.2%.
Under “relative binding score”, `T1K` is recorded as 17.6%.
Under “relative binding score”, `S87H` is recorded as 51.8%.
Under “relative binding score”, `S27M` is recorded as 2.26%.
`L166D` — result for “relative binding score”: -1.9%.
`V43D`: “relative binding score” 0.286%.
`Y141V` — result for “relative binding score”: -2.4%.
`V121M`: “relative binding score” -1.93%.
Under “relative binding score”, `N85M` is recorded as 69%.
`D75M` — result for “relative binding score”: 26.4%.
For `D65P`, “relative binding score” read 45.2%.
`L29W`: “relative binding score” 0.224%.
Under “relative binding score”, `N61Q` is recorded as 52.5%.
Under “relative binding score”, `V118Y` is recorded as 6.66%.

Series 4
Target: Interferon regulatory factor 7, full length, phosphomimetic (IRF7, Homo sapiens, UniProt Q92985, residues 1-503, S471D/S472D/S475D/S476D/S477D/S483D/S484D/S487D)
Chain of UniProt Q92985 (whole entry, unmodified, looked up): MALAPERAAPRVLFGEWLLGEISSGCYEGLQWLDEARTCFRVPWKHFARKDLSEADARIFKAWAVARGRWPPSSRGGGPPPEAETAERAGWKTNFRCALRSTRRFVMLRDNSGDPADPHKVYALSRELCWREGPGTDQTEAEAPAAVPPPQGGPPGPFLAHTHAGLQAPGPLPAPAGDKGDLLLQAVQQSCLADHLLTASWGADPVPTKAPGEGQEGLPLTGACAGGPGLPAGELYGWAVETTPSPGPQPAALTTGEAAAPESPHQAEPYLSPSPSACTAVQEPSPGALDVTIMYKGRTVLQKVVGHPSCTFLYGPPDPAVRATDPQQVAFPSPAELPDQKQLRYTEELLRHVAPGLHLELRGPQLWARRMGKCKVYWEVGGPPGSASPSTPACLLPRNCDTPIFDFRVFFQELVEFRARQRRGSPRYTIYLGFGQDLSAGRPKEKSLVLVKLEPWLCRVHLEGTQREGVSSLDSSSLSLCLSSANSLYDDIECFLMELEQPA
Technique: protein-binding microarray
Form: double-stranded DNA, one strand shown
Sample: in vitro
Concentration: 2200 nM top
Setting: 60-bp whole probe
Added: salmon DNA 0.4 mg/ml
Baseline: random background probes
Reading: higher = stronger binding
Shared flanks, not repeated: GCCTAGCAC … GTCTTGATTCGCTTGACGCTGCTG
`CTTTCTATGTCTGTTTTTGCGTGCTAG`: “fitted relative affinity” 2.74 z-score.
For `TCATTTCTGAATGTCTTACTGTGCTAG`, “fitted relative affinity” read 1.97 z-score.
Under “fitted relative affinity”, `TTAGATTTCAGTCTGGATTAGTGCTAG` is recorded as 0.419 z-score.
For `GACGGTATCTGTTTCGGGACGTGCTAG`, “fitted relative affinity” read 2.55 z-score.
For `TCATCTTTCGTTACTTCACTGTGCTAG`, “fitted relative affinity” read 4.38 z-score.
Under “fitted relative affinity”, `GACGATCTCAGTATCGCGACGTGCTAG` is recorded as 0.31 z-score.
For `TTAGAACGGGGGACTGGATTAGTGCTA`, “fitted relative affinity” read 0.746 z-score.
`TCACTTATCCTTCCCCTACTGTGCTAG` — result for “fitted relative affinity”: 3.1 z-score.
`GACGATGTCAGACTGGAGACGTGCTAG` — result for “fitted relative affinity”: -0.17 z-score.
`TTAGGTCTCCTTATCCTGTAGTGCTAG` — result for “fitted relative affinity”: 0.896 z-score.
`GACGATTCCAGATTCGAGACGTGCTAG`: “fitted relative affinity” 1.13 z-score.
Under “fitted relative affinity”, `TTAGGTCGCGGACTGGGTTAGTGCTAG` is recorded as -0.63 z-score.
`TTAGGTTTAGGTTCCGGTTAGTGCTAG`: “fitted relative affinity” 1.54 z-score.
`GACGGTATCGGGACTGGGGAAGTGCTA` — result for “fitted relative affinity”: -0.563 z-score.
`TCACATTCCAATTCTTTTACTGTGCTA`: “fitted relative affinity” 2.52 z-score.
`TGGAACCAGCGAACGAGCGGGTGCTAG`: “fitted relative affinity” -0.484 z-score.
Under “fitted relative affinity”, `GGCGGTTTCGGTATCGGGACGTGCTAG` is recorded as 7.74 z-score.
Under “fitted relative affinity”, `TTGCCTCACCTCACCTGTCCGTGCTAG` is recorded as 1.32 z-score.
`TAAGAACTGGGGTTTCGATTAGTGCTA` — result for “fitted relative affinity”: 2.25 z-score.
`GACGGTCTCCTTGTCCTGACGTGCTAG` — result for “fitted relative affinity”: 0.864 z-score.
For `GACGATTTCGGGTTTCGATACGTGCTA`, “fitted relative affinity” read 5.82 z-score.
Under “fitted relative affinity”, `TTAGCTATCGGGACTGGATTAGTGCTA` is recorded as -0.279 z-score.
`GATGAACTGGGGACTGGAGACGTGCTA`: “fitted relative affinity” -0.36 z-score.

Series 5
Target: PABPC1L2, full length, GST fusion (mouse, UniProt A0ABA7IW68)
Technique: RNAcompete
Form: RNA
Sample: in vitro
Concentration: 20 nM
Setting: 7-mer, probes averaged, single round
Baseline: mean of 7-mers
Reading: higher = stronger binding
Residues (chain): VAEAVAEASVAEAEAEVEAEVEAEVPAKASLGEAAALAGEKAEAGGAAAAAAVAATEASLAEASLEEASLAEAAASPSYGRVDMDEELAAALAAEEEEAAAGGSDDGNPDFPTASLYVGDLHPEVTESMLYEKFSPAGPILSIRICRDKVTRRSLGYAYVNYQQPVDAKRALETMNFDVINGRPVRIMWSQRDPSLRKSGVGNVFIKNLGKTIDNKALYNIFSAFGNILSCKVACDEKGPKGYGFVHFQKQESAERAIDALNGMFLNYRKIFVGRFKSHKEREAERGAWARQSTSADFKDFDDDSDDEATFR
For `ACCUGGA`, the 7-mer Z-score was -0.012.
With `GAGUAGG` the 7-mer Z-score was -0.0355.
For `CUAUUGU`, the 7-mer Z-score was -0.443.
`GACCGUU` has a 7-mer Z-score of -0.374.
With `CAAAUGA` the 7-mer Z-score was 0.215.
`CUUUAGC` has a 7-mer Z-score of -0.144.
With `AUCGCCC` the 7-mer Z-score was -0.293.
`CUCAAAC` has a 7-mer Z-score of -0.00833.
The 7-mer Z-score of `UCACGAC` is reported as -0.195.
`CCUGUAA` gave a 7-mer Z-score of -0.00652.
`GGGAGCU` gave a 7-mer Z-score of 0.153.
For `UCGGAAG`, the 7-mer Z-score was -0.171.
`UGAUGAC` has a 7-mer Z-score of -0.22.
With `GAACGGG` the 7-mer Z-score was 0.151.
With `ACUGGUA` the 7-mer Z-score was -0.0554.
With `UUAUCAG` the 7-mer Z-score was -0.186.
`UCGGCUU` gave a 7-mer Z-score of -0.246.
`UAACUGG` gave a 7-mer Z-score of -0.132.

Series 6
Target: DDIT3, bZIP domain (human)
Technique: DHFR protein complementation
Sample: yeast
Setting: single substitutions, most at no-binding floor
Baseline: wild-type JUN-FOS pair
Reading: higher = stronger binding
Starting sequence: JUN, bZIP domain (human); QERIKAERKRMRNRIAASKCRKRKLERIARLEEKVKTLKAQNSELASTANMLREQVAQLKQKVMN; partner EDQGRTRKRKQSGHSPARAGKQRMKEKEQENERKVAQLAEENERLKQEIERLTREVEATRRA
`E33P` has a binding fitness of -1.23 natural log.
With `R30S` the binding fitness was 0.108 natural log.
`E44I` gave a binding fitness of -0.0414 natural log.
For `R53D`, the binding fitness was -1.25 natural log.
With `R53Y` the binding fitness was -0.774 natural log.
`E32H` gave a binding fitness of -0.37 natural log.
`L52C` has a binding fitness of -1.23 natural log.
For `R53S`, the binding fitness was -0.39 natural log.
For `Q55M`, the binding fitness was 0.0469 natural log.
With `K34Q` the binding fitness was 0.113 natural log.
`A46T` has a binding fitness of 0.124 natural log.
For `Q58H`, the binding fitness was 0.0209 natural log.
The binding fitness of `A29N` is reported as -0.0434 natural log.
For `A49Y`, the binding fitness was -0.0569 natural log.
For `N42R`, the binding fitness was -0.244 natural log.

Series 7
Target: Histone acetyltransferase KAT6A, winged helix 2, GST fusion (KAT6A, Homo sapiens, UniProt Q92794, residues 85-181)
Technique: protein binding microarray
Form: double-stranded DNA, one strand shown
Sample: in vitro
Concentration: not given
Setting: 8-mer, flanks averaged, mean of 2 arrays, mostly near background
Baseline: not given
Reading: higher = stronger binding
Residues (chain): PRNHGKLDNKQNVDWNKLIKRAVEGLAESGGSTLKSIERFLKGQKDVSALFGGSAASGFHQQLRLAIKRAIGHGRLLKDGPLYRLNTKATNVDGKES
For `GTCATGTA`, the E-score was -0.269.
`AGACATTC` gave an E-score of -0.0982.
For `GCGGGGGA`, the E-score was 0.101.
With `CCAACTGG` the E-score was 0.0406.
For `ACTGGTTA`, the E-score was -0.191.
For `AGAGACAT`, the E-score was -0.0189.
For `ATGAGGAG`, the E-score was -0.094.
`ACCGCGTA` has an E-score of -0.00417.
`CGATTGGA` has an E-score of -0.077.
For `GCTTCTAC`, the E-score was 0.0472.
For `AGAGATAC`, the E-score was -0.022.
`CGCCGGAG` gave an E-score of 0.063.
For `TAATCATA`, the E-score was 0.037.
The E-score of `AGCCCACA` is reported as 0.0766.
For `GGCTAGCC`, the E-score was -0.00958.
`AGCTGAAT` has an E-score of 0.0245.
With `GCGGGACC` the E-score was 0.121.
`ATGGTTTG` gave an E-score of 0.0376.

Further values, each from its own experiment
`PhoQ, residues 284 288 289 292 302 303 SNSSNI` gave a fold induction of 3.32 (PhoP, residues 12 14 15 18 19 AWHSL (Escherichia coli, UniProt P23836); Sort-seq, item: YFP reporter; E. coli; PhoQ-PhoP variant library, added: 10 µM Mg2+; baseline: high Mg2+ state, higher = stronger signaling).

Some of these lines once more (series 7):
`CGATTGGA` has an E-score of -0.077.
For `GCTTCTAC`, the E-score was 0.0472.
For `AGAGATAC`, the E-score was -0.022.
`CGCCGGAG` gave an E-score of 0.063.
For `TAATCATA`, the E-score was 0.037.
The E-score of `AGCCCACA` is reported as 0.0766.
For `GGCTAGCC`, the E-score was -0.00958.
`AGCTGAAT` has an E-score of 0.0245.
With `GCGGGACC` the E-score was 0.121.
